# Results of several laboratories.
# Each numbered part is a random draw from the data of one study; scales do not carry over between parts.

# Block 1
# Target: Centromere-binding protein 1, full length, N-terminal tag (CBF1, Saccharomyces cerevisiae, UniProt P17106, residues 1-351)
# Sequence of UniProt P17106 (whole entry, looked up): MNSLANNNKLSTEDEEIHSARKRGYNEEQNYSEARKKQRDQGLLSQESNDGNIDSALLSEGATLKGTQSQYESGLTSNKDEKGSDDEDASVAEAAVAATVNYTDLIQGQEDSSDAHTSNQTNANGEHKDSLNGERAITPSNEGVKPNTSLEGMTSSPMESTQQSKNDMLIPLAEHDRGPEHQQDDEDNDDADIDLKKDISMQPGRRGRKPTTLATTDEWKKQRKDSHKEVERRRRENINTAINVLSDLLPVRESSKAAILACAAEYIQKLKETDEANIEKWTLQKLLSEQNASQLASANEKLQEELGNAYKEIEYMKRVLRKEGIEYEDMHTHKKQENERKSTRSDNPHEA
# Technique: protein-binding microarray
# Form: double-stranded DNA, one strand shown
# Sample: in vitro
# Tested at: 0.8 µM
# Setting: whole 60-bp probe, no competitor
# Direction: higher = stronger binding
# All sequences stand within: … GTCTTGATTCGCTTGACGCTGCTG
Strand,fluorescence intensity
GAACGGAATGGTAAACATCAGACGCGCTTTCCGTAG,505 a.u.
CTAGTACCTATATACCACCAGAAGTATGTGTCTTTC,507 a.u.
GAACAGATGTCTGGTCTGGTGGTATCGTATACATAG,558 a.u.
CTATGGCTTGATGACCACATGGCTATGATTTTATTC,723 a.u.
CTAAATATGAGTCGTCACATTAAATGTATGAAGTTC,517 a.u.
TGTACGAAGCTATTTTTCCACGTTATAGTAGTTAGG,555 a.u.
CCTAACTACTATATGCACGAAAAATAGCTTCGTACA,514 a.u.
CTATTACCATTCCTACACGTTATAAGGACTCAGTTC,572 a.u.
CTAAATTAGTTATGTCACGCTTACATTCACGCCTTC,925 a.u.
TGTACGAAGCTATCACGTGGGAGTATAGTAGTTAGG,10200 a.u.
TGTACGAAGCTATCAAACATGACTATAGTAGTTAGG,529 a.u.
CTAGGATGTCTGCGATTGGTGATGCTAAGAACTTTC,522 a.u.
GAACCTTTCTCCGGTCACATGAAGCCTCTGTATTAG,1910 a.u.
CTAGTACATCTAATTTACGTGACCTAGACGTTGTTC,703 a.u.
CTACACAAATTTTGTCACCTGTGCTTTGCTAGATTC,650 a.u.
CTACAATCGGAAAAGCACCTGAGGCAAACAAAATTC,521 a.u.
CTACGAGGATGGAGCAGCCTGATGTCTTTGTAATTC,508 a.u.
GAACTTGATGGTCTACACGTTGTTTCAAGTGCATAG,598 a.u.
CTAGTATTATATAGAAACGTGTTAGTAGGCTCTTTC,595 a.u.
GAATGACTTCATACTTGCGTCACCCCGATTTTATAG,533 a.u.
CTAAAAATTTTTGTTCACGTTGAACAGAGGGTATTC,704 a.u.
CTACAGAGCCCAATAAACGTGGTACTTGTCGAGTTC,545 a.u.
CTATATTCATTTTTCCTCGTGTTGTTATAACGATTC,630 a.u.
CTACTCATCTTCTTTCCCGTGCCGTCGGGTTTATTC,552 a.u.
CTATTTCAAAATGATGGTGATGATAAAAATAAGTTC,609 a.u.

# Block 2
# Target: RNA binding protein fox-1 homolog 2, RRM domain, GST-SBP tag (RBFOX2, Homo sapiens, UniProt O43251-10, residues 100-194)
# Technique: RNA Bind-n-Seq
# Form: RNA
# Sample: in vitro
# Tested at: 365 nM
# Setting: natural RNA segment, single round, ends assumed
# Baseline: no-protein control
# Direction: higher = stronger binding
# All sequences stand within: GGGAGUUCUACAGUCCGACGAUC … UGGAAUUCUCGGGUGCCAA
# Construct (chain): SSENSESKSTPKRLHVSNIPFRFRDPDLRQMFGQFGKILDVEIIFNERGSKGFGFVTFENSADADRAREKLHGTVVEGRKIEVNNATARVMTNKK
Strand,RBNS enrichment (R)
CAUGUUUAUUUGCACCUGAUGCUCAGGAGCCAGAUGUGGACCCUGCAGAGCCAGGCUUGUACCACAGCUCAGAGGCGUCAAGUUUCCAAUUAAAGCCACUGGAGAAAACC,0.382
CUCCAAUUUUCUGUGCCAUUUUAAAUUUAACUUUGACAUCCAGCUAUAGACAGAAAUAAUAAGCCACCCUGGGUGUAAACUUGAUUUUCUUUAUUGAGAUGUAUCAUGUA,0.983
AUCCCAGGCCCUGUGCGGAGCAUCGGGAAUACAAAGAUGAGAUAAAACAUUGUCCCUGCCCCCGGGGGCUCACAUGCCACUGGAAACAACAGACUCUUAAACUAACAAUU,0.244
AGAGUCCUUCAUCCCAUCUCCAGGGUCUCUGACUUGUCACCCCUCAUCCUGGGAGCGCCAUAGUUCAUCUUUCACCCACACGCCUUCCCUCCAUUCCUGAGCAGGACUAG,0.479
UUUGAAAGAUUUUUGUAAAUUCUUUUAACACUGAUGUUUCAGCCUCGUCUUUGUUUCAGUUAAGCUCAAUGGCGAACAUGGGAACCACCUUUCGCCUUCCCUGGGGGAGA,0.19
AAUUUUAUACAAAUCUUUUAUAGAAGAAUUGCCCAUGUCAAUAUAUGUUCAGAGUUAAAUAUUAACCAUAAAUUCGCAGCAAUGCUGUAUUGUGUCAUUGAAGUUCCCAG,0.549
UGUCUUCAGCCCCACGUAGAUGCUGCUUAAGAUGAGCGUUUCAAUUGCAUCAUCACUGACCUGUUAGAAUUUAACCCGGAAACAUCGCAAUAGCAUUUAGGGAUGCACGC,1.77
AUGUUUUGGAAUUUGAUAGACUUUCGGCAACCAGUUCUACUAAUGCUUCACUCCUGGCUCUGUUCAGGGAGGCUGCCCAGGAGGAAGACUGGCCAUUAUGCAUCCCCUUU,5.33
GCCUUUGGUGUUUGGGGUUUCCUGAAGUGGGAGGAGUGUUGAGUAAGUUGGUCUUUCCCGGUGCUAUACUUGCCUCCUCUCCACGGAAGAAUUGUUCAGGAGAUGCGCUU,0.485
CAAAUGUUCUGAGACCUUUGGGGCCAUUUAUUACUUUGUACAAGCCCAAUAAUCCUCUCUUUUCUGCCAAGUCCUCAACCCAGAAAUGUAGGCUUCUGUGCACCACACGG,0.399
CUCUGUUUCUGCAUGAAGCACACAUACUCUGGUGUCAACACGCUAAGUAGUUUAAAUGAGGGAAAGGAAAAUGCAGACCACAUCUUGCCUGCCUCGUAAGCGUUUCCUCC,3.62
GAGAGAAGAGUUGUGUCCUUUACCAUAGCAACAGGAUUCAUUGGGGGAUCAAAAUCAUAAUUUUAAAUUAUGCAUUAUAUUUCUUUUCUCCACUCCUCACAUAUACAGAA,0.403

# Block 3
# Target: Ras GTPase-activating protein-binding protein 1, RRM domain (G3BP1, Homo sapiens, UniProt Q13283)
# Sequence of UniProt Q13283 (whole entry, looked up): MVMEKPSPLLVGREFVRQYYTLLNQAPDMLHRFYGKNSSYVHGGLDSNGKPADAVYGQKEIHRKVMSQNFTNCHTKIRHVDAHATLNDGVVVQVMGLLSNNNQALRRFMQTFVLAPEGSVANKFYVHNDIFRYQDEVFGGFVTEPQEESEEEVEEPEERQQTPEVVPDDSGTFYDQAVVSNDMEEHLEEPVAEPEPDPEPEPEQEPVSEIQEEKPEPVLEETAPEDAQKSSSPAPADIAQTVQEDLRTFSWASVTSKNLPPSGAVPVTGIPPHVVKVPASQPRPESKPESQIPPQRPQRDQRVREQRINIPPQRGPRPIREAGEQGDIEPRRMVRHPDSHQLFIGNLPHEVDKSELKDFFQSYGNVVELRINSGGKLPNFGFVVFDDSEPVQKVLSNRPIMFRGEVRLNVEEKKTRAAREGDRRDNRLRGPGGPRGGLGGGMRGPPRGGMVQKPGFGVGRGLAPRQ
# Technique: RNA Bind-n-Seq
# Form: RNA
# Sample: in vitro
# Tested at: 1 µM
# Setting: whole 134-nt RNA, ends assumed
# Together with: 150 mM KCl
# Baseline: input library
# Direction: higher = stronger binding
# All sequences stand within: GGGAGUUCUACAGUCCGACGAUC … UGGAAUUCUCGGGUGUCAAGG
Strand,log2 enrichment
UGGCCCUGGUGGCAUGCGGGGAGGAAGAGGUGGCCUCAUGGAUCGUGGUGGUCGCGGUGGAAUGUUCAGAGGUGGCCGUGGUGGAGACAG,0.453
UUGACGAGGCCGGCCCGGGAGAUGAGACCACCGGCCAGGAAGUCAUUGUCAUUCAGGACACGGGCUUUUCUGUGAAGAUCCUCGCCCCUG,-0.671
UCCUGUGCUACACAUCGUAUGUACCGAAUCGGGGUUUUUGGGGAAAGGGGAAAAAGGGGAAAGUAUUAUGUUACGCCGUUCGGAUCUGCA,0.821
UAACUUUAGAGGAGGAUCUGAUGGAUAUGGCAGUGGACGUGGAUUUGGGAAUGGCUAUAAUGGGUAUGGAGGAGGACCUGGAGGUGGCAA,-0.736
UGGGAGGUGGAUUUUGUUUAUUUCUUUAGCUCAUUUCCAGGGGUGGGAAUUUUUUUUUAAUAUGUGUCAUGAAUAAAGUUGUUUUUGAAA,1.68
UUUAGACAGAAACAAGAAGCAACAGAGUCCCUUAAGUGCCAAGAGGAACUUCGAGAGCGCCUUCAUGAGGAGUCCAGGGCCAGAGAACAG,-0.125
AAGUCCUGUGCUACACAUCGUAUGUACCGAAUCGGGAGGGAAAAAAAGGGAAAGGGAAAGUAUUAUGUUACGCCGUUCGGAUCUGCACUU,0.686
CCUGUGCUACACAUCGUAUGUACCGAAUCGGUUUUUUUGGUUUUUUUGGGUUUUUUUGGGGAAAGUAUUAUGUUACGCCGUUCGGAUCUG,-0.596
ACCAUGCAGUUGGGCAUCUUUGGGAAGUGGGGCAAGGGGGGGAUAGGGAGGGGGGUAACACUUUGGGAACAGGUGGUCCCAGGUCGUUUC,-0.543
UAACUUUAGAGGAGGAUCUGAUGGAUAUGGCAGUGGACGUGGAUUUGGGGAUGGCUAUAAUGGGUAUGGAGGAGGACCUGGAGGUGGGAA,-0.272
UGCGGGCCGAGAAUCGGGAGCUGGGCAAACGCGUACAGGCACUGCAGGAGGAGAGUCGCUACCUACGGGCAGUCUUAGCCAACGAGACUG,-0.666
GUCCUGUGCUACACAUCGUAUGUACCGAAUCGGGCCCCCCGGGCCCCCCGGCCCCCCGGAAAGUAUUAUGUUACGCCGUUCGGAUCUGCA,-0.368
GCAGGAAGUAAAAACAAAUGGAAAUGCUUCGGAUAGUGGAAAGGGUGGGGGUUGCUAAGGAAAGGGUGGGAUGGGAGUGGGUAAAGAGUU,1.33
UGGGAGGUGGAUUUUGUUUAUUUUUUAAGCUCAUUUCCAGGGGUGGGAAUUUUUUUUUAAUAUGUGUCAUGAAUAAAGUUGUUUUUGAAA,1.7

# Block 4
# Target: Interferon regulatory factor 5, full length, phosphomimetic (IRF5, Homo sapiens, UniProt Q13568-2, residues 1-514, K96S/S451D/S453D/S456D/S462D)
# Technique: protein-binding microarray
# Form: double-stranded DNA, one strand shown
# Sample: in vitro
# Tested at: 250 nM
# Setting: 60-bp whole probe
# Together with: salmon DNA 0.4 mg/ml
# Baseline: random background probes
# Direction: higher = stronger binding
# All sequences stand within: GCCTAGCAC … GTCTTGATTCGCTTGACGCTGCTG
Strand,log fluorescence [z-score]
TCACTTCCCCTCTCTTTCACTGTGCTA,1.67
TCATGCTCATTTTTCAGACTGTGCTAG,0.231
GACGGTTTAGACTTTCGGGACGTGCTA,4.21
GACGGTATCCTTTTCCAGACGTGCTAG,0.283
GACTGTTTCCTACTGCTGACGTGCTAG,0.71
TCAATTTTGCTTTCATTACTGTGCTAG,4.96
TTAGGTCTGGGTATCGGTTAGTGCTAG,4.05
TCAGGTTTCGACACTGGGTTAGTGCTA,5.33
TTTCTTTTCCATTTTGTGTTGTGCTAG,5.88
TTAGAACTGCGGTATCGATTAGTGCTA,3.25
TTTTTTTTTTTTTTTTACTTGTGCTAG,1.46
TTAGGACTGGGACTGGCTTAGTGCTAG,-0.585
TCAACTTTCTTTAACATACTGTGCTAG,1.92
GACGGTATCGGGTATCGGGATGTGCTA,3.64
TCATGGTTCTGCTTCTTACTGTGCTAG,0.0953
TTTGGTATCGGTATCGGTTAGTGCTAG,10.5
TCAAGTTTACCCATCTCCAGGTGCTAG,-0.0156
TTAGGTTTCCTTATCCGTTAGTGCTAG,1.14
GACGGTTCCGGTTTCGGGAAGTGCTAG,5.26
GACGGTATCGGTATCGGGACGTGCTAG,6.44
TCAATCATTGCTTTCTCACTGTGCTAG,1.34
GACGGTTTCGTCACTGGGGACGTGCTA,2.92
GCCCCACCCGCTCTGGCCCCGTGCTAG,-0.78
GACGGTATTGGACTGGGGACGTGCTAG,-0.238
CAAAAATGATTGGTTGAACAGTGCTAG,0.551
